Published values from different studies.
Every numbered part comes from another study and shows a few of its results, in no order. Changes are numbered by the printed parent chain.

Series 1
Target: Histone acetyltransferase KAT6A, winged helix 1, GST fusion (KAT6A, Homo sapiens, UniProt Q92794, residues 1-85)
Method: protein binding microarray
Molecule type: double-stranded DNA, one strand shown
Medium: in vitro
Concentration: not given
Setting: 8-mer, flanks averaged, mean of 2 arrays, mostly near background
Reference: not given
Direction: higher = stronger binding
Target sequence (chain): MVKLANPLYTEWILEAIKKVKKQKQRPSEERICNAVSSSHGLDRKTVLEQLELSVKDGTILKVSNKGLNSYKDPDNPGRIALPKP
For `AATCTTCA`, the E-score was -0.126.
The E-score of `CGGGAGGA` is reported as 0.162.
The E-score of `AATCGCAT` is reported as -0.0059.
With `AGAGCGCG` the E-score was 0.338.
For `CCTTCCAG`, the E-score was -0.275.
The E-score of `GAATGCGC` is reported as 0.339.
`ATAAAATA` has an E-score of -0.0442.
`ACACCGGC` gave an E-score of 0.34.
For `AGCGTGAG`, the E-score was 0.0892.
For `CAACGTCG`, the E-score was -0.0692.
For `ACTCAAGC`, the E-score was -0.133.
`ACCACATA` has an E-score of -0.229.
The E-score of `CTGGAAAA` is reported as 0.00123.
The E-score of `AAGTTGCA` is reported as -0.186.
`CCGGTATA` gave an E-score of 0.227.
With `ATACCCAA` the E-score was -0.24.
The E-score of `ACGATTCC` is reported as -0.0554.

Series 2
Target: POU domain, class 5, transcription factor 1, POU domain (Pou5f1, Mus musculus, UniProt P20263, residues 131-289)
Sequence of UniProt P20263 (131-289, looked up): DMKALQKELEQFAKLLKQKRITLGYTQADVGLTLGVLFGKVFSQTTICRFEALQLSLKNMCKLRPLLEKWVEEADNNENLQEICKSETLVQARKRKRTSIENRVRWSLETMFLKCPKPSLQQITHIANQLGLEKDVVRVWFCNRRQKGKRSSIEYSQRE
Method: Spec-seq
Molecule type: double-stranded DNA, one strand shown
Medium: in vitro
Concentration: not given
Setting: whole probe, mean of replicates
Reference: not given
Direction: lower = stronger binding
Constant ends, left off below: GAGTCGTCTCGTCAGCAC … CCGTAGAGCACTCAGGTC
For `ATGCAGCT`, “relative binding energy” read 0.305 ln ratio.
`ATCGGCAT`: “relative binding energy” 0.402 ln ratio.
For `CATATAAT`, “relative binding energy” read 0.628 ln ratio.
Under “relative binding energy”, `ATGCTAGA` is recorded as 0.604 ln ratio.
`ATCGATAT` — result for “relative binding energy”: 0.509 ln ratio.
Under “relative binding energy”, `ATACCTAT` is recorded as 0.36 ln ratio.
`TCGCTAAT`: “relative binding energy” 0.278 ln ratio.
`ATTGAAAT`: “relative binding energy” -0.263 ln ratio.
`ATACCAAT` — result for “relative binding energy”: 0.184 ln ratio.
Under “relative binding energy”, `ATTTGAAT` is recorded as -1.2 ln ratio.
Under “relative binding energy”, `ATGCGCGC` is recorded as 0.34 ln ratio.
`ATTACTAT` — result for “relative binding energy”: 0.214 ln ratio.
`ATGGTGAT` — result for “relative binding energy”: -0.291 ln ratio.
Under “relative binding energy”, `ATGCACCC` is recorded as 0.161 ln ratio.
`GGGATAAT` — result for “relative binding energy”: 0.638 ln ratio.
For `ATGCTACT`, “relative binding energy” read 0.407 ln ratio.
`ATGCATTG` — result for “relative binding energy”: -0.407 ln ratio.

Series 3
Target: RNA binding protein fox-1 homolog 2, RRM domain, GST-SBP tag (RBFOX2, Homo sapiens, UniProt O43251-10, residues 100-194)
Method: RNA Bind-n-Seq
Molecule type: RNA
Medium: in vitro
Concentration: 365 nM
Setting: natural RNA segment, single round, ends assumed
Reference: no-protein control
Direction: higher = stronger binding
Constant ends, left off below: GGGAGUUCUACAGUCCGACGAUC … UGGAAUUCUCGGGUGCCAA
Target sequence (chain): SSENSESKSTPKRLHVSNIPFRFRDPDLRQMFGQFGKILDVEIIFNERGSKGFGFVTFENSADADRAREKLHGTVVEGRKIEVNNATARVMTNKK
Under “RBNS enrichment (R)”, `GACAGAUAGUUUCCAGAGUACGCCAUGUAUAGCAAAGAACCCUGCCAUAGUUUUGACUCAGCCCCAUGCAUCCUUUCCCUCUUUCCUGAAAACAACUAAUUUAAAUUUGC` is recorded as 1.26.
`GACAGUUAUGGUACACACAACGAUAAAAGCCCUCCGCGUCCAGAUCGUCCUUCCAUGGCUGUAAUUAAGAUGGGGGAGCUUCGCUGAUCGUUGUGUAGUGAGCACCUUGU`: “RBNS enrichment (R)” 0.594.
For `CUGCCACCCUUGACGCCCUGCUCUGGAUAACAAGACUUUGACUUGGGGAGACCUCUACUGCCUUGGACAACUUUUCUCAUGUUGAAGCCACUGCCUUCACCUUCACCUUC`, “RBNS enrichment (R)” read 0.99.
Under “RBNS enrichment (R)”, `AGUUACAUCAAGUGGCUAGAUCAAAACCUGUAAAGGAGCAAAACUUCCAGAAGCCUCGAGCCCCUCUUGACCUCCUACACCUGCUUUGGAAAGACAUGCACUUUUUAGUU` is recorded as 0.332.
`CGGGAGGGGAGUUAACUGGCAGGCAUGGCAAGGUUGCAUAUGUAAUAAAGUACAAGCUGUUAAAAAACCUGGAGAAAGCUUUUUGACUUUGAGCAGGUGGAGAACCCCAC` — result for “RBNS enrichment (R)”: 0.688.
Under “RBNS enrichment (R)”, `ACUAUGACAUGACUUGAGUCCAGUGAGAUCUCAUUAGGAUUAAUAUUUCAGGGAUCCUUAAUAUUUUGAUUUGUUUUCCGAGAUUGGAUUUUAUUUUAUCUGCUAUUUCA` is recorded as 2.09.
Under “RBNS enrichment (R)”, `AAAUUUGAGUCAGAAUGUUUGGAGAAAUGUUGUUUUUUUUUUUUUCAGAGACUACUUUGUCACUCACUGACCAUGUCUGGUUCCUUCUCUGAACUUCAUUCUCCCCAUAA` is recorded as 0.828.
`GCAACUCAGUGGCCAUUCUUCUGCCUUCCCAGACCUUAGUUUUAUAAAGCAUUGUCUGUUCCAGAGUGGCCUUUGAAGAGACUGAAUAAUCACUUCGUCAUAAUGUUAAG`: “RBNS enrichment (R)” 0.474.
Under “RBNS enrichment (R)”, `UACUCUGGUAUGAUUGGUUCUGUUGGAAACUGAUUUAGGUGAAUACAGACAUACCAUAGGGGUAAGGAACUGAAUGCUGUAAAGGAGUCGGUUCUCAUCUCAGGUUGGUA` is recorded as 0.281.
`GGCUGCUUUGCAGUCCCUGCUAAAGGGACCACCAGAGGGAGGGACAGUUCGUACGGCCCUCUCAGCACGCGUCAUGAGUGGGACUGGAGCCCCUGCGGGACUAGCACAGC`: “RBNS enrichment (R)” 0.488.
`CCCUGACCAGCCUCCUCCCAUGACUGGUGACUGUUUAAUGAGCUGUGCAUCCCCCACAAAAACAUGAGUGCCCCUCUGUGUGGCCUCUAACCCUCUGCACAGCCCUUCUG`: “RBNS enrichment (R)” 0.475.
`CCUGGCUCUCGGCAGUGACGUCCUCCCACACCUGGUCACAAGUAGUAGUGGCUGUGCUAUACCCAGCAUCAUGCUUAACAGCGUGUUGCCCUUCUGAGCCUGUUGUACUC`: “RBNS enrichment (R)” 0.22.

Series 4
Target: Sal-like protein 4, full length isoform A (SALL4, Homo sapiens, UniProt Q9UJQ4, residues 1-1053)
Sequence of UniProt Q9UJQ4 (whole entry, looked up): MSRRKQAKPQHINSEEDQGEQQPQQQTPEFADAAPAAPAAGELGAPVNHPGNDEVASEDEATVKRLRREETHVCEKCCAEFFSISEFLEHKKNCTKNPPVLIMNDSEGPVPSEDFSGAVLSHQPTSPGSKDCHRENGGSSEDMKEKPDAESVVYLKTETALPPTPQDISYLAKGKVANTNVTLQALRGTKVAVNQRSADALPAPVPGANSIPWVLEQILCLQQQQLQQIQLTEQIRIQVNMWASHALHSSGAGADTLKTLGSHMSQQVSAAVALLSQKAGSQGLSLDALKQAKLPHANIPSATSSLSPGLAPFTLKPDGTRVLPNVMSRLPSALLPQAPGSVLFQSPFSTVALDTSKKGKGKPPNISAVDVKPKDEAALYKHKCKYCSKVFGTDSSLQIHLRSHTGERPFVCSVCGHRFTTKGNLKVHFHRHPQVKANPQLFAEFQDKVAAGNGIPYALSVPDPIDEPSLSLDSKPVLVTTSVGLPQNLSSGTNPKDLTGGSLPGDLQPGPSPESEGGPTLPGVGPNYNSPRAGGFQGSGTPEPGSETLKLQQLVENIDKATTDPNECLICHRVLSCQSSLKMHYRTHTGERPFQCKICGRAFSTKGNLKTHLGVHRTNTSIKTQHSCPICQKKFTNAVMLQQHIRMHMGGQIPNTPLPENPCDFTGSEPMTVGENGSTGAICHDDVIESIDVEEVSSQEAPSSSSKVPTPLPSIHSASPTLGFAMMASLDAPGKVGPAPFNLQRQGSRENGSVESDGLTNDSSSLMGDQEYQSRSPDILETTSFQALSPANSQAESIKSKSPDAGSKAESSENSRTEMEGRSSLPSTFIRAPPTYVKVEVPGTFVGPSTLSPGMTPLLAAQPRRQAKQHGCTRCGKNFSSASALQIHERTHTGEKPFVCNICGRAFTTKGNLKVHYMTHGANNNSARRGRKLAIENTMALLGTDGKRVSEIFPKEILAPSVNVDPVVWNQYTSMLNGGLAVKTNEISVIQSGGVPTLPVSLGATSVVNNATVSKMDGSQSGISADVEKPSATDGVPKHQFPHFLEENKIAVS
Method: universal PBM
Molecule type: double-stranded DNA, one strand shown
Medium: in vitro
Concentration: 600 nM
Setting: 8-mer, flanks averaged, mean of replicates
Direction: higher = stronger binding
With `CAGAGGCA` the E-score was -0.0439.
`CCTTATCA` gave an E-score of 0.165.
With `GGAACCAA` the E-score was -0.219.
With `GGCAGTGA` the E-score was -0.215.
The E-score of `CCGGAAAG` is reported as -0.17.
For `TCACGGAA`, the E-score was 0.102.
With `GAGAGATA` the E-score was 0.19.
The E-score of `GGGAGGTA` is reported as -0.194.
`GACCTCAA` has an E-score of -0.0254.
With `GTTATGCA` the E-score was 0.194.
The E-score of `CGAGCACG` is reported as -0.299.
For `CTTCTTGC`, the E-score was -0.0624.
With `CAAAACGG` the E-score was 0.0751.
`ATGTCCGA` gave an E-score of -0.069.
For `ACCTGGAT`, the E-score was -0.255.
`AAGAGGCC` has an E-score of -0.276.
For `CGTTTGCC`, the E-score was -0.166.
The E-score of `AGCGCCTG` is reported as -0.338.
With `GATGACAA` the E-score was 0.162.

Series 5
Target: Centromere-binding protein 1, full length, His-tagged (CBF1, Saccharomyces cerevisiae, UniProt P17106, residues 1-351)
Sequence of UniProt P17106 (whole entry, looked up): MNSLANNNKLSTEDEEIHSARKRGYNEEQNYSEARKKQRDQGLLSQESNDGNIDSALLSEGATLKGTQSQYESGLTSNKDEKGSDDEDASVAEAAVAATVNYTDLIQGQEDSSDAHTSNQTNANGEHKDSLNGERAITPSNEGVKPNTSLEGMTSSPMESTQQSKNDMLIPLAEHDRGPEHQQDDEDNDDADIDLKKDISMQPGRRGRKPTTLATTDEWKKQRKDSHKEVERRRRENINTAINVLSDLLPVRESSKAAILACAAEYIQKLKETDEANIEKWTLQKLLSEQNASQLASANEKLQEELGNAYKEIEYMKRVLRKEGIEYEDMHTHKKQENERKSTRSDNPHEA
Method: competition protein-binding microarray
Molecule type: double-stranded DNA, one strand shown
Medium: in vitro
Concentration: 2 µM
Setting: whole 60-bp probe, lowest competitor level
Together with: Pho4 competitor, 0.05 µM
Direction: higher = stronger binding
Constant ends, left off below: … GTCTTGATTCGCTTGACGCTGCTG
`TTTACCCATAAGTCCCACGATTATCCACTTTTTAAT` gave a fluorescence intensity of 71.8 a.u.
`GTCCGTAACAATTTGCACGATGCTGGCTTCTATGCC` has a fluorescence intensity of 82.2 a.u.
With `CGTCCTAGCGATTGAATCGTGGGTGCCATGAGGAAG` the fluorescence intensity was 73.3 a.u.
For `TTGCCATGGCGATCGCGCGTGGGTATGGTCTTTCCC`, the fluorescence intensity was 74.2 a.u.
For `CATACCCAACCTTGTCACTCGACTTAAGATATTTGT`, the fluorescence intensity was 89.8 a.u.
`CTGTGTGACCTTGGACACATGGCTCAACCTCTGTGA` has a fluorescence intensity of 125 a.u.
For `AAATTACTAAGTTGATTGGTGGGTGACGCCGTATGA`, the fluorescence intensity was 61.4 a.u.
`CTGGAATGGCTCGGCCACATGGGTGGGATTACCCGC` gave a fluorescence intensity of 65 a.u.
`CCGGACACTAGGAAACACGCACAAAATTCTCAGGCA` has a fluorescence intensity of 75 a.u.
For `CTTTCCCGATCTTGACGAGTGGGTGTAGCACATTTG`, the fluorescence intensity was 63.5 a.u.
`TGCGCAACAACTTGTGTCGTGGGTGTATGTCTAGAA` gave a fluorescence intensity of 83.6 a.u.
`CTTGCCGAGATGGTGTTCGTGACGGAAATTGTGGAA` gave a fluorescence intensity of 90.3 a.u.
For `CTTCTGTAAATTTGTGAGGTGGGTGGACGCGCCCCG`, the fluorescence intensity was 113 a.u.
`TTTCTTATGAAAATCAGTGTGACAGTAATGAGACTT` gave a fluorescence intensity of 92.4 a.u.
With `TGATAATGCAATAGCCTTTGATGACAATGTTAGTAA` the fluorescence intensity was 78 a.u.
The fluorescence intensity of `ATACTGAAGATTCGAAACGTGTTTCTAAAACCAATA` is reported as 148 a.u.
The fluorescence intensity of `CAGCGAACCAAAGGCACCGTGAGTAGAGGTATGAGA` is reported as 55.5 a.u.
With `TGCGCAACAACTTGGTTTGTGGGTGTATGTCTAGAA` the fluorescence intensity was 64.4 a.u.
The fluorescence intensity of `CTTTCCCGATCTTGACACGTGGGTGTAGCACATTTG` is reported as 963 a.u.

Series 6
Target: CCND2, cyclin fold, Cln2 fusion (human)
Method: yeast growth competition, sequencing
Medium: yeast
Setting: weak parent motif
Reference: not given
Direction: higher = stronger binding
Parent: REPIN1 docking peptide (human); QSFRGWVALVLHL; partner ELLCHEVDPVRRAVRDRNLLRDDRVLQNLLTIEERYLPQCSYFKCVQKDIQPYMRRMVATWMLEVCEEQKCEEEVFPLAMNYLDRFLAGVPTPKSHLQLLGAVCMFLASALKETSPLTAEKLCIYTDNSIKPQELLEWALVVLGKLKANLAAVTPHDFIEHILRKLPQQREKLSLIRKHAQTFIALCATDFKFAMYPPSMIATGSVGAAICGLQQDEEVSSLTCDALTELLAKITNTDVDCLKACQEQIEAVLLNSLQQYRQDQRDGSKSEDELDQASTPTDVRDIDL
Under “normalised enrichment score”, `QSARGWVALVLHL [F3A]` is recorded as -0.13.
`QSFRGAVALVLHL [W6A]` — result for “normalised enrichment score”: -0.329.
Under “normalised enrichment score”, `QSFRGWVALALHL [V10A]` is recorded as -0.383.
`QSFRGWAALVLHL [V7A]`: “normalised enrichment score” 0.225.
For `QSFRGWVALVAHL [L11A]`, “normalised enrichment score” read -0.0797.
`ASFRGWVALVLHL [Q1A]` — result for “normalised enrichment score”: -0.542.

Excerpt of the above (series 4):
`ATGTCCGA` gave an E-score of -0.069.
For `ACCTGGAT`, the E-score was -0.255.
`AAGAGGCC` has an E-score of -0.276.
For `CGTTTGCC`, the E-score was -0.166.
The E-score of `AGCGCCTG` is reported as -0.338.
With `GATGACAA` the E-score was 0.162.
